Assay results gathered from unrelated publications.
Every numbered part comes from another study and shows a few of its results, in no order.
Chain of UniProt P11229 (whole entry, looked up): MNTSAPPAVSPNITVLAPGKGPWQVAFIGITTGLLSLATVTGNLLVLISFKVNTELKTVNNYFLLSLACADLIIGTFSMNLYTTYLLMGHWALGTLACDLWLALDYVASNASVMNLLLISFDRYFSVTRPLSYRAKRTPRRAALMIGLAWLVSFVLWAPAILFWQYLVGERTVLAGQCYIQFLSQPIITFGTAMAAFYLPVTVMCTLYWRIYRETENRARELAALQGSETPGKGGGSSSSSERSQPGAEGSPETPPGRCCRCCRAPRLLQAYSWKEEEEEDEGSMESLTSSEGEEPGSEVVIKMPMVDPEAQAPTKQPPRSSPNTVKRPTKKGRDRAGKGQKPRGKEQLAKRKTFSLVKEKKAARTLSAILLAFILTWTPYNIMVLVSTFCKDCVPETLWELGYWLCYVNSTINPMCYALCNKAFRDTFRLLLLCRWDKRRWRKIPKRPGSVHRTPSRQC
Chain of UniProt Q9H4B4 (whole entry, looked up): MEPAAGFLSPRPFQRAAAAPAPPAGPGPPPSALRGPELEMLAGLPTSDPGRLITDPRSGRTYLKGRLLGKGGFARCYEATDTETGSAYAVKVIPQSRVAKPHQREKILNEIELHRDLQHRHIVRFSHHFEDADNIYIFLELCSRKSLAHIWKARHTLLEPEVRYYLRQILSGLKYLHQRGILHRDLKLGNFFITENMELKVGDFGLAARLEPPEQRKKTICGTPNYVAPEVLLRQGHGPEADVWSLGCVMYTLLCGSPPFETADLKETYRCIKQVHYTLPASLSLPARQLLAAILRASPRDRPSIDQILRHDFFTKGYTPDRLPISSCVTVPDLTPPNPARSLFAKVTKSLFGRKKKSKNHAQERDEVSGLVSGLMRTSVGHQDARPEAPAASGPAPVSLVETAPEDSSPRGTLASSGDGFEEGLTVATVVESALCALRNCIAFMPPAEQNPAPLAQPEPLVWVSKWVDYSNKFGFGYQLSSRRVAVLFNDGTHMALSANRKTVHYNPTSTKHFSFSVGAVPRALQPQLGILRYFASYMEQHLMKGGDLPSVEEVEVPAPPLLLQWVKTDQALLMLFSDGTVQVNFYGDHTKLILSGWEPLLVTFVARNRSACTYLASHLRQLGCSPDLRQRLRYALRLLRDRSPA
Chain of UniProt Q9Y5S2 (whole entry, looked up): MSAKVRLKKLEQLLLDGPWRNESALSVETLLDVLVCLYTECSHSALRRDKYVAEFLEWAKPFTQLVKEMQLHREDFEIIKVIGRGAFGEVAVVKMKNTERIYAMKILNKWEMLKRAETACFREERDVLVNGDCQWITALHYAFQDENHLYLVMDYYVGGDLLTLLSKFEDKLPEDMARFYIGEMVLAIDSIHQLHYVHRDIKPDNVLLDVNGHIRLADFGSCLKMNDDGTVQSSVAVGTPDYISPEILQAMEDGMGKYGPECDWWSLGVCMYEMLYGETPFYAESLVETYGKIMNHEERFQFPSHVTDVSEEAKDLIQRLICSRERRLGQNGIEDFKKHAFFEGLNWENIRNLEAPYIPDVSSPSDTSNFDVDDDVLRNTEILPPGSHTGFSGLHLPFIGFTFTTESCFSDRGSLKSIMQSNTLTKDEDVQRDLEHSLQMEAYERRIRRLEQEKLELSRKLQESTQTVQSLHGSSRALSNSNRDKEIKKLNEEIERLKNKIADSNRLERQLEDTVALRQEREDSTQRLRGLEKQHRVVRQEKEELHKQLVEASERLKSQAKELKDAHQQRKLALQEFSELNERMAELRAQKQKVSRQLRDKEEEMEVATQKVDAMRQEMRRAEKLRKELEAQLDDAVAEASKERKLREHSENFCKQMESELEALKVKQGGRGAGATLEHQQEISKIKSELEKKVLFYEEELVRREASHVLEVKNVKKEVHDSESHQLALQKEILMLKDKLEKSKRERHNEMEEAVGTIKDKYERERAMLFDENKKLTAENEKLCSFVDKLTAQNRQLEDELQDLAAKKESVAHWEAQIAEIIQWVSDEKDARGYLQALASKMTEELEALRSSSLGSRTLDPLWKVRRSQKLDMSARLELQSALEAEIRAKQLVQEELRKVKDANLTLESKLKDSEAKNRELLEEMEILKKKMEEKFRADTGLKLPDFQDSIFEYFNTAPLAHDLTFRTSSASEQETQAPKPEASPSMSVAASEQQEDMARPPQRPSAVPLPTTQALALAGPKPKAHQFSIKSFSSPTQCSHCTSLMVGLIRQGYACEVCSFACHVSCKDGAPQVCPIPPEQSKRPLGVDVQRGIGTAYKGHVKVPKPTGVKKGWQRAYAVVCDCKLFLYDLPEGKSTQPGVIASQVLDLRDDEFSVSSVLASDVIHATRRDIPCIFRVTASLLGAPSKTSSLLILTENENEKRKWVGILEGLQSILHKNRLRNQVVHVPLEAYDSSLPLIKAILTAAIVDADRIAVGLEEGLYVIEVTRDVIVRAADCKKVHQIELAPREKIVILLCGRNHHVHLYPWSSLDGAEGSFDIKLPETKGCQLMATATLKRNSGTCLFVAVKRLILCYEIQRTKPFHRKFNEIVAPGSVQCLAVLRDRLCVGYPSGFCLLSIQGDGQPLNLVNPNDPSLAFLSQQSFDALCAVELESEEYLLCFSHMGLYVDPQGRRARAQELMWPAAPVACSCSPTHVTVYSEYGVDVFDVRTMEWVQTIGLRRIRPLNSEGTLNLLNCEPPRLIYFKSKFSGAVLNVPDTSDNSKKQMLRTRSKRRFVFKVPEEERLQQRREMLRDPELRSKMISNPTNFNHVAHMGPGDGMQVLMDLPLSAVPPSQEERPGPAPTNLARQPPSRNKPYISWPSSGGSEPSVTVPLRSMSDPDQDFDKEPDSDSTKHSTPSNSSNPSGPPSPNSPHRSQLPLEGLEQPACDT
Chain of UniProt Q01959 (whole entry, looked up): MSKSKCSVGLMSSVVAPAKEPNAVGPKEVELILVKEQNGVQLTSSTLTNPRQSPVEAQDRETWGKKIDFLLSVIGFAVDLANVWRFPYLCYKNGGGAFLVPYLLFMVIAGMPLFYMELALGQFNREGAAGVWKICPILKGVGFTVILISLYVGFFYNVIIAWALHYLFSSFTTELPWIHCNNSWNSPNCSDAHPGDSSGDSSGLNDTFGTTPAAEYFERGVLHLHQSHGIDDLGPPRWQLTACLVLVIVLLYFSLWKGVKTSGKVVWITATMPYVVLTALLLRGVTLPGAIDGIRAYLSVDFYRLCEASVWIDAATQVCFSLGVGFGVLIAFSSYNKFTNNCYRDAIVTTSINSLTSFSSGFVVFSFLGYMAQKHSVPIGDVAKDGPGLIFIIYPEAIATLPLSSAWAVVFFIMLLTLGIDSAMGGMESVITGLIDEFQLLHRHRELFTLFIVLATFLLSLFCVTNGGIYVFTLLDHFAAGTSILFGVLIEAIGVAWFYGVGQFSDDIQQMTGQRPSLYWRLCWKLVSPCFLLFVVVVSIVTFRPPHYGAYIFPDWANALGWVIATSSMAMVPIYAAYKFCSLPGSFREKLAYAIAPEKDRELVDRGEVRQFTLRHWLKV

Sample 1
Compound: N/C(=N\[N+](=O)[O-])N/N=C\c1ccc(-c2cccc([N+](=O)[O-])c2)o1
Read-out: enzyme activity
Action: inhibitor
Tested at: 0.5 µM
Reference: control
target	remaining activity [%]
Dual specificity protein kinase CLK3 (CLK3, Homo sapiens, UniProt P49761)	97.7
Serine/threonine-protein kinase MARK2 (MARK2, Homo sapiens, UniProt Q7KZI7)	108
Mitogen-activated protein kinase 1 (MAPK1, Homo sapiens, UniProt P28482)	99.7
Vascular endothelial growth factor receptor 2 (KDR, Homo sapiens, UniProt P35968)	96.7
Dual specificity protein kinase CLK4 (CLK4, Homo sapiens, UniProt Q9HAZ1)	103
Serine/threonine-protein kinase PLK3 (PLK3, Homo sapiens, UniProt Q9H4B4)	96.8
Serine/threonine-protein kinase Nek3 (NEK3, Homo sapiens, UniProt P51956)	101
G protein-coupled receptor kinase 4 (GRK4, Homo sapiens, UniProt P32298)	95.5
Mitogen-activated protein kinase 14 (MAPK14, Homo sapiens, UniProt Q16539)	90.2
Misshapen-like kinase 1 (MINK1, Homo sapiens, UniProt Q8N4C8)	84.1
Serine/threonine-protein kinase MRCK beta (CDC42BPB, Homo sapiens, UniProt Q9Y5S2)	95.4
cGMP-dependent protein kinase 2 (PRKG2, Homo sapiens, UniProt Q13237)	98.7
Dual specificity mitogen-activated protein kinase kinase 1 (MAP2K1, Homo sapiens, UniProt Q02750)	105

Sample 2
Target: CRBN/Zinc finger protein Helios (Homo sapiens, UniProt Q96SW2+Q9UKS7)
Chain of UniProt Q9UKS7 (whole entry, looked up): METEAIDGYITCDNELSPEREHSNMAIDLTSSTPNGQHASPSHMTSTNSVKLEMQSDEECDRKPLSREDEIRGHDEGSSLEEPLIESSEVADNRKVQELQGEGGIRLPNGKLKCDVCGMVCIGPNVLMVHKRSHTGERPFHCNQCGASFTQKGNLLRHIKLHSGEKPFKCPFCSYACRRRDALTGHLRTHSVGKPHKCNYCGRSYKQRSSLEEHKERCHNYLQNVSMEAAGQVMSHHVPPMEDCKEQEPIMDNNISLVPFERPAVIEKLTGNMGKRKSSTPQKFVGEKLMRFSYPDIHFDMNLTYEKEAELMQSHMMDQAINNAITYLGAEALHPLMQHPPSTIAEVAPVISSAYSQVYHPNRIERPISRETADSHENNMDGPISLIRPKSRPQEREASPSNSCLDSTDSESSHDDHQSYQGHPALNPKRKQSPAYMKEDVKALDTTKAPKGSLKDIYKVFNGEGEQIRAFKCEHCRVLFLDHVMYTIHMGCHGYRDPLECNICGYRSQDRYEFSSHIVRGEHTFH
Chain of UniProt Q96SW2 (whole entry, looked up): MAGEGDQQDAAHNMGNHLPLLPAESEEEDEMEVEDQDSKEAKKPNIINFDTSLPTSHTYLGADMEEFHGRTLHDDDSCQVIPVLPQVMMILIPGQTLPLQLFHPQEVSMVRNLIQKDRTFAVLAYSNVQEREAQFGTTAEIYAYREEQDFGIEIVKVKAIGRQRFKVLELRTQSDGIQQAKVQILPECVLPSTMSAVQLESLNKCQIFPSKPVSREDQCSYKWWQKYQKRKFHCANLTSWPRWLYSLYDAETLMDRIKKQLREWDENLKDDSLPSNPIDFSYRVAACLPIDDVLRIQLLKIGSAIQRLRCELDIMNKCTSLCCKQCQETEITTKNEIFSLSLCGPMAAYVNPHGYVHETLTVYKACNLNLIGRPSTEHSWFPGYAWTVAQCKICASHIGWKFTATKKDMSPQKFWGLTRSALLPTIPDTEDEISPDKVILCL
Action: degrader
Method: HiBiT
Cells: HEK293
Tested at: 4.572 nM
Compound	protein remaining [%]
O=C1CCC(N2Cc3c(ccc4c3OCC43CCN(Cc4ccccc4)CC3(F)F)C2=O)C(=O)N1 (centres unmarked)	102
O=C1CCC(N2Cc3c(ccc4c3OCC43CCCN(Cc4ccccc4)CC3)C2=O)C(=O)N1 (centres unmarked)	96.3
O=C1CCC(N2Cc3c(ccc4c3OCC43CCN(CC4CCCCC4)CC3)C2=O)C(=O)N1 (centres unmarked)	75.8
O=C1CCC(N2Cc3c(ccc4c3OCC43CCN(Cc4ccsc4)CC3)C2=O)C(=O)N1 (centres unmarked)	60.1
O=C1CCC(N2Cc3c(ccc4c3OCC43CCN(Cc4ccccc4)C3)C2=O)C(=O)N1 (centres unmarked)	90.8
O=C1CCC(N2Cc3c(ccc4c3OCC43CCN(Cc4ccccn4)CC3)C2=O)C(=O)N1 (centres unmarked)	78.7

Sample 3
Target: Calcium/calmodulin-dependent protein kinase type II subunit alpha (CAMK2A, Homo sapiens, UniProt Q9UQM7)
Chain of UniProt Q9UQM7 (whole entry, looked up): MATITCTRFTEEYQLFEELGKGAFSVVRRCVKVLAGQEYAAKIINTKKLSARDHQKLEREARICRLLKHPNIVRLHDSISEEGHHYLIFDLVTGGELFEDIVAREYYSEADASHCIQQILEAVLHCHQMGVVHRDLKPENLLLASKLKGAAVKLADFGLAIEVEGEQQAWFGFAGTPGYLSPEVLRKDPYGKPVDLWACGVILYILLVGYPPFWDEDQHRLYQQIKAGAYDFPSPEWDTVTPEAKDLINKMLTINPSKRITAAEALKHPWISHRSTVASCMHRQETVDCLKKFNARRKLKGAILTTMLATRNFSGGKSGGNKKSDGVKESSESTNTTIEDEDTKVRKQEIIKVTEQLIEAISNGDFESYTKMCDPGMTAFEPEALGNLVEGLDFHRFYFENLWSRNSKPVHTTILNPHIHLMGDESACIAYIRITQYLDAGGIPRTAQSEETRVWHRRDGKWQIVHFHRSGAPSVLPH
Read-out: enzyme activity
Action: inhibitor
Tested at: 10 µM
Compound	inhibition [%]
CC(C)CCC(=O)c1ccoc1	-5
CN[C@H]1C[C@@H](N)[C@H](O)[C@@H](O[C@@H]2O[C@H](CO)[C@H](O)[C@@H]3OC4(O[C@H]23)O[C@H]([C@@H](N)CO)[C@H](O)[C@H](O)[C@H]4O)[C@@H]1O (some centres unmarked)	26
C/C(=C\c1csc(C)n1)[C@@H]1C[C@@H]2O[C@@H]2CCC[C@H](C)[C@H](O)[C@@H](C)C(=O)C(C)(C)[C@@H](O)CC(=O)O1	-2
CC(=O)c1c(O)c(C)c(O)c(Cc2c(O)c3c(c(C(=O)/C=C/c4ccccc4)c2O)OC(C)(C)C=C3)c1O	-27
O=Cc1ccc[nH]1	-58
NC(=O)c1cn([C@@H]2O[C@H](CO)[C@@H](O)[C@H]2O)c2ncnc(N)c12	-4

Mixed results
Tested at: 10 µM
Compound	target	read-out	method	inhibition
CN1CCN(c2cnc3c(C4CCN(C(=O)c5ccc(OC(F)(F)F)cc5N)CC4)ncnc3c2)CC1	Sodium-dependent noradrenaline transporter (SLC6A2, Homo sapiens, UniProt P23975)	ligand displacement		-17.2%
CCCOc1ccc([C@H]2[C@H](C(=O)O)[C@@H](c3ccc4c(c3)OCO4)CN2CC(=O)Nc2c(CC)cccc2CC)cc1	5-hydroxytryptamine receptor 1A (HTR1A, Homo sapiens, UniProt P08908)	cell-free assay		-16.7%
CCC(=O)N[C@H]1CC[C@@H](C(=O)N(C)c2ccc(-c3nc4ccccc4o3)cc2)C1	Muscarinic acetylcholine receptor M1 (CHRM1, Homo sapiens, UniProt P11229)	binding	radioligand binding	3.53%
Cc1c(N2CCNCC2)nc2ccc(Br)cc2c1C(=O)NC[C@H](CCC(=O)O)c1ccccc1Cl	Sodium-dependent dopamine transporter (SLC6A3, Homo sapiens, UniProt Q01959)	ligand displacement		33.5%

For quick reference, copied from above (sample 3):
Compound	inhibition [%]
NC(=O)c1cn([C@@H]2O[C@H](CO)[C@@H](O)[C@H]2O)c2ncnc(N)c12	-4
O=Cc1ccc[nH]1	-58
CN[C@H]1C[C@@H](N)[C@H](O)[C@@H](O[C@@H]2O[C@H](CO)[C@H](O)[C@@H]3OC4(O[C@H]23)O[C@H]([C@@H](N)CO)[C@H](O)[C@H](O)[C@H]4O)[C@@H]1O (some centres unmarked)	26
